Results pooled from the literature.
Each numbered part is a random draw from the data of one study; scales do not carry over between parts.

Set 1
Target: Fragile X messenger ribonucleoprotein 1, C-terminal low-complexity region (Fmr1, Mus musculus, UniProt P35922)
Technique: RNA Bind-n-Seq
Molecule type: RNA
Sample: in vitro
Tested at: 200 nM
Setting: whole 134-nt RNA, ends assumed
Together with: 150 mM KCl
Baseline: input library
Direction: higher = stronger binding
All sequences stand within: GGGAGUUCUACAGUCCGACGAUC … UGGAAUUCUCGGGUGUCAAGG
Strand | log2 enrichment
UGGCCCUGGUGGCAUGCGGGGAGGAAGAGGUGGCCUCAUGGAUCGUGGGGGUCCCGGUGGAAUGUUCAGAGGUGGCCGUGGUGGAGACAG | 0.184
UUGCUAAUCUAUAAAUUUUUUUUAUAUGAAAUAGCUCAUAGUCGGAAGCCGGCACCCUCAAAUGAGCCCGAAUAUCUAUGUAAAUGGAUG | -2.05
GUCCUGUGCUACACAUCGUAUGUACCGAAUCGGGAAAAAAAGGGUUUGGGAAAAAGGGAAAGUAUUAUGUUACGCCGUUCGGAUCUGCAC | -0.603
CUGUGCUACACAUCGUAUGUACCGAAUCGGGGUUUUUGGGGUUUUUUUGGGGUUUUUGGGGAAAGUAUUAUGUUACGCCGUUCGGAUCUG | 0.0412
CAAGUCCUGUGCUACACAUCGUAUGUACCGAAUCGGAAAAAAAGGUUUGGUUUGGAAAGUAUUAUGUUACGCCGUUCGGAUCUGCACUUC | -0.864
GUCCUGUGCUACACAUCGUAUGUACCGAAUCGGGCCCCCGGGGCCCCCGGCCCCCGGGGAAAGUAUUAUGUUACGCCGUUCGGAUCUGCA | -0.92
CCUGUGCUACACAUCGUAUGUACCGAAUCGGGAAAAAAGGGAAAAAAGGGAAAAAAGGGGAAAGUAUUAUGUUACGCCGUUCGGAUCUGC | -0.523
UGGGAGGUGGAUUUUGUUUAUUUUUUUAGCUCAUUUCCAGGGGUGGGAAUUUGUUUUUAAUAUGUGUCAUGAAUAAAGUUGUUUUUGAAA | 0.12
GCAGGAAGUAAAAACAAAUGGAAAUGCUUCGGAUAGUGGCAGGGGUGGGGGUUGCUAAGGAAAGGGUGGGAUCGGAGUGGGUAAAGAGUU | 0.205
CUGUGCUACACAUCGUAUGUACCGAAUCGGGGAAAAAAAGGGGAAAAAGGGGAAAAAGGGGAAAGUAUUAUGUUACGCCGUUCGGAUCUG | -0.317

Set 2
Target: RNA binding protein fox-1 homolog 2, RRM domain, GST-SBP tag (RBFOX2, Homo sapiens, UniProt O43251-10, residues 100-194)
Technique: RNA Bind-n-Seq
Molecule type: RNA
Sample: in vitro
Tested at: 365 nM
Setting: natural RNA segment, single round, ends assumed
Baseline: no-protein control
Direction: higher = stronger binding
All sequences stand within: GGGAGUUCUACAGUCCGACGAUC … UGGAAUUCUCGGGUGCCAA
Target sequence (chain): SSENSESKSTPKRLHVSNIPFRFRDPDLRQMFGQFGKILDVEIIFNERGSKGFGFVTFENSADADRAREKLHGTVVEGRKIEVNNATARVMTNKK
Strand | RBNS enrichment (R)
CAAGGCAAGGAAGGGUGUUGCAGAGAGGGAACAGCAUAUGCAAAGGCGUAUCAGUUCAUGGCAUCACAUCUUUCACUGGGGAAGCCAGUUUCCACAGGCAGCAUCCCAAG | 0.87
CGCGGGCAGCCAGGCCCAGCCCCCGCCCGAGCUCAGGCUGCCCCUCUCCUUCCCCGGCUCGCAGGAGAGCAGAGCAGAGAACUGUGGGGAACGCUGUGCUGUUUGUAUUU | 0.578
UCCUUGCUCUCAAAACAAAACAAUAUAAUCUAUCAAAGGUGUUUUACUCAGUGUUCUAAUUUUUAAAAAAUUUUAUCUGCAUAUUUGCAUCAAAUAUUUAUGUGUAAAAU | 2.12
ACUCCAGGCUCUGACAGGUAGUGGCCUGGGCCCAGCUGCAAGCCAUGCUCCCCUGAGCUAUAACCCCAGAAACUCUGCACUUUAUCAAGAAAGGACCCCCUCCUUAUGGA | 0.582
UAAUCACUGUGACCUCUGAAUUUUCAAGUAUAGGCCAAAUGAGCCAAGUAACUUGGCUGUGAAAUGGCAGAAGGAACCUUCUCUCAAGCAGGUAGGUCAAGAGAUGGGCC | 0.285
UUGGCUAACCCCACUGAAGGCACAUUUCUAGAUGAUGCCGUGUGUGGUCAAUACAUUGCUUUCAUGUUUUAAAUUUAAGGAAAAAUUUUAUCUGAUAUUUUUCCAAAUUA | 0.512
AACAAUGGUUUCAGGAGAACUGUUUGUUUCUGUGUGAAUUGAGUUGACACACUCCAGUCCUGAGCUGCUCUGCUGCCGCUUCCCUCAGUUAACCUUCUCACCGAAACCUU | 0.385
AUAGAUAGGCCCAGUGUCUUGGCAUUCUUGUAGAAUCUUCAGGUGGGAAUGUGUGAUGCCUUUUCAGGCAAUAGGAAAGUGCAUGAGGAGAGUUUUGAAUGUGCAUAUGC | 19.2
AGAGCAGUUUGUUGACUUGUGUGCAAUGGGGAGAGGUACCAUGAUGACACUCACAGGGAGCCACUGUUCACUGACACUUGGAAGCGGUCAUUGUUAAUAUCACGGGCGUA | 0.433
CAAUGGGUUUUUCCCUGUACAGUAGAUUUUCCAAAUGUAAUAAACUUUAAUAUAAAGUAGUCCUGUGAAUGCCACUGCCUUCGCUUCUUGCCUCUGUGCUGUGUGUGACG | 0.387
UGGUAAACGUGGCAGAGCAGAAUGGGAGGCUGGACCCUGAGGAAGGGCCCCUCUCCUGGCAUCUGUCUCUUGCUACCUAAGCCUGUGCCUCUCCCUAAAGAGCUGCCUCC | 0.2
GAAAAGACUGCCAAACUAUUGGCUGACCAAGGUUUUUAAAUUCAGAAGAGCAAUUCUAAAUCUAAAGAAAUGUAUCAUUAAAGUAAUUACGUUACAUUGAAACCUGCUGC | 0.402

Set 3
Target: PABPC1L2, full length, GST fusion (mouse, UniProt A0ABA7IW68)
Technique: RNAcompete
Molecule type: RNA
Sample: in vitro
Tested at: 20 nM
Setting: 7-mer, probes averaged, single round
Baseline: mean of 7-mers
Direction: higher = stronger binding
Target sequence (chain): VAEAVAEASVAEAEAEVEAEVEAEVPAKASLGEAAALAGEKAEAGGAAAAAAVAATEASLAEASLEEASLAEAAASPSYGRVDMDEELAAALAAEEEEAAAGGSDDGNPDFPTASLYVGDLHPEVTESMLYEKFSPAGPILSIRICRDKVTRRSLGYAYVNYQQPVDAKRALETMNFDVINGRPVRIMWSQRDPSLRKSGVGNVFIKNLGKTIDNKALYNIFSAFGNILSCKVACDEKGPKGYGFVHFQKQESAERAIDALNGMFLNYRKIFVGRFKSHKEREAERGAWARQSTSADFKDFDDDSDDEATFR
Strand | 7-mer Z-score
AACCGAG | 0.00254
GCGUCUG | -0.34
AACUAAG | 0.276
AGAGCUA | -0.153
AAACCCA | 0.452
UGGGUCA | 0.158
UACCAAC | -0.0699
ACCUCCC | -0.373
GUCGUGG | -0.151
CCUACAC | -0.309
ACGCGAG | -0.217
GUAGAUC | -0.197
AUCCACG | -0.211
AGGGGUG | 0.419
CCGCGAU | -0.0826
UUUUGAU | -0.117
CGUCGAG | -0.258
UUUAGUU | -0.335
GGUUAAG | 0.111
UGAUGUG | -0.0573

Set 4
Target: Centromere-binding protein 1, full length, N-terminal tag (CBF1, Saccharomyces cerevisiae, UniProt P17106, residues 1-351)
Chain of UniProt P17106 (whole entry, looked up): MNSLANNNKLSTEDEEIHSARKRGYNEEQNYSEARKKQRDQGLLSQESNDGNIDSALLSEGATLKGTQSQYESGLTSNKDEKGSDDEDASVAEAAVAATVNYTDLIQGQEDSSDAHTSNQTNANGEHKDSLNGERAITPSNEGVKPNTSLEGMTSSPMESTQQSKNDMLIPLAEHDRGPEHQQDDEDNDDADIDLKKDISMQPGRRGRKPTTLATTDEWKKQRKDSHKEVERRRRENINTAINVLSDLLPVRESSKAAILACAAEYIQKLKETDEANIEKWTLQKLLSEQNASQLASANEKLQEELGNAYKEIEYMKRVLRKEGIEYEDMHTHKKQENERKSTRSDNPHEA
Technique: protein-binding microarray
Molecule type: double-stranded DNA, one strand shown
Sample: in vitro
Tested at: 0.8 µM
Setting: whole 60-bp probe, no competitor
Direction: higher = stronger binding
All sequences stand within: … GTCTTGATTCGCTTGACGCTGCTG
Strand | fluorescence intensity [a.u.]
CTAGAAAAAGGGAATCAGGAGGCACGGTACCTGTTC | 661
CTAATGTTACCCTATCGTGTGCAATTTTTATTTTTC | 571
CTATTTTTTTTTTTTCACATGTTTCAATTTGCGTTC | 923
CTACTTTCTCTGCTCCATGTGAATTAAATAAGTTTC | 723
GAATTTCTTTTTCACCACGTTAACGAAACTTTTTAG | 607
TGTACGAAGCTATAGCACGTAGTTATAGTAGTTAGG | 697
GAACGGCGGCAAAAACGTGACATGCACGTGATGTAG | 22300
GAATACTTAATATTCTTCGTGATAATACTGTACTAG | 504
GAATCGGGGATCCACGTGATGGCTTTTTGATCATAG | 8620
TGTACGAAGCTATACAAGGTGACTATAGTAGTTAGG | 532
GAATATCCCTATCAAATCGTGATAATATGTGGTTAG | 529
GAAGCAGTAAACGATCACGCAACTACTCCATTTTAG | 616
GAATTTTTCTTTGCTGATGGCACTCAAGTCTAATAG | 510
GAATGGTTACGTTGCCACTCACGTAAGAAGTTCTAG | 501
GAATTTTTGTGATTGAACGTGTGATCTTTTCCTTAG | 578

Set 5
Target: RING finger protein unkempt homolog, zinc fingers 1-6, GST-SBP tag (UNK, Homo sapiens, UniProt Q9C0B0, residues 30-357)
Technique: RNA Bind-n-Seq
Molecule type: RNA
Sample: in vitro
Tested at: not given
Setting: RNA with constant flanks, human and mouse sites, ends assumed
Baseline: input RNA pool
Direction: higher = stronger binding
All sequences stand within: GGGAGUUCUACAGUCCGACGAUC … CAACAGAGGAUUGAGCAUCA
Target sequence (chain): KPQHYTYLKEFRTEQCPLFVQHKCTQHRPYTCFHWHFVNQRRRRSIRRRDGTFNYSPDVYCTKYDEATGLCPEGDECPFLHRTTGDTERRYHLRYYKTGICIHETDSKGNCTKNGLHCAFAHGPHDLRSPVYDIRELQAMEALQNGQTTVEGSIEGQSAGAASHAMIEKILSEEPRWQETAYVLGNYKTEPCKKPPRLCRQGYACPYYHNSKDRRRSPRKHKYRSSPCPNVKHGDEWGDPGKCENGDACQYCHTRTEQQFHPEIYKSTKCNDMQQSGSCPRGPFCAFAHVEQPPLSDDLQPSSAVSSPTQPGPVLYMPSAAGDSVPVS
Strand | bound/input enrichment [ratio]
UAUUUAAUAUCACCUCUAGAUUUUGUACCUGAAGCCUUGUUUGGAAUUCUGGGCUUUCUAGAUGAUUUCUUUGUUAUCUUUUUGUUGCUUAUUUACAUCUCCAUUAUGUAUCGAGAAGUG | 0.739
UUUAAGCAGCAGAAGUUACUAAGACCCAAUAUAUUUGAAGACAUUUCCAAAAAAUAUAAACAACACCAGCCUACCGACAGGGUCACAGAAAACCUGAAGAAGUUACUUUCAUAUUGUGAA | 0.595
GAAGAUCCGGAACUGGCUAAGUCUUUCAUUAAGACCUUGUUUGGUGUUCUCUAUGAAGUGUACAGCUCCUCAGCAGGCCCUGCGGUCAGACACAAGUGCCUUAGAGCAAUUCUUAGGAUA | 0.316
GCAGAGAAUGACCCAUUUUCAACUGACACCCUGAGCUCACACCCUCUCAGUGAGGCAAGAAGUGAUUUCUGUCCCUCAUCUAGUGAUCCUGACUCAGCUGGCCAGGACCCCAACAUCAAU | 0.192
CAGUUGGAUGCCAGUAUUCCAGUCACUUUUACAAAGGACAAUAGAGUUCAUAUUGGACCCAAAAUGGAAAUCCGAGUAGUCACAUUAGGAUUAGAUGGUGCUGGAAAAACUACCAUUUUG | 4.84
UGGAGACGGCAGCUGGGCCGGCUUGGCCUCCAUUGAGAUCCGGAGGAUCCAAGGACUGUGAGGCUACAAUGUUGUCAAGACUUUUCCGGAUGCAUGGCCUCUUCGUGGCCUCCCACCCCU | 0.0877
GGCGCGUGGGGCUGUUUGGUCCCCUCCGGAGUGCGGUGAGGCGGGCCGAGCCGGGACUGCCUGGGUUUGGGGAUAACGUUCCCAUCUCCACCCCUGUUGCAGCAAGGGAAAUUGAGGCUG | 0.203
AUUUAUAUUUGUGAAAAAUGCCACUGUCCUAGUGAUUUCUGAUGUAAAUAAUGUUGUUUAUAUAGUAUGUAUUAAAUUUUCCUACAUUGUAAAACUGCUGUACUUUUGAUUCUUGUAUAU | 1.43

Set 6
Target: Max-binding protein MNT, bHLH-zipper, MAX partner unstated (MNT, Homo sapiens, UniProt Q99583, residues 220-300)
Technique: protein-binding microarray
Molecule type: double-stranded DNA, one strand shown
Sample: in vitro
Tested at: not given
Setting: k-mer, scored over probes, only values ≥0.25
Direction: higher = stronger binding
Residues (chain): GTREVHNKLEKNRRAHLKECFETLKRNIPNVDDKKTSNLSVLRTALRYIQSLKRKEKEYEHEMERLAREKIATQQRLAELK
Strand | E-score
CAACGTGA | 0.421
AACCCACG | 0.372
ATCACGCG | 0.421
CACGATGG | 0.293
AACCATGT | 0.261
GGGGAGCA | 0.281
CGCACACG | 0.393
CATGCAGG | 0.335
AAGACATG | 0.287
CCCGCACA | 0.3
ACGCCCTC | 0.277
GGGCGGGA | 0.358
CAGTCACG | 0.424
ACAGGTGG | 0.297
CACGCTAC | 0.392
CGTGTATC | 0.375
CGCATGGC | 0.443

Repeated from above (set 3):
Strand | 7-mer Z-score
UGAUGUG | -0.0573
AACCGAG | 0.00254
GUAGAUC | -0.197
GUCGUGG | -0.151
UUUAGUU | -0.335
GGUUAAG | 0.111
CGUCGAG | -0.258
AUCCACG | -0.211
AACUAAG | 0.276
